Results of several laboratories.
Protocols differ between the studies behind these lines.

Structure (SMILES) | assay | system | conditions | scale | endpoint | result
C[C@@H]1OC(=O)NN=C1c1ccc(-c2ccc(F)cc2)c(C(F)(F)F)c1 | phase I trial, refers to: Pneumonitis all grades | human patients | 5 mg once daily | – | patients with adverse event | 0%
N.N.[Cl][Pt][Cl] | – | mice, serum | dose not given | – | AST | 132 IU/L
O=S(=O)(Nc1ccccc1)c1ccc(NC(=S)Nc2ccccc2)cc1 | refers to: BUN | female mouse, blood | oral, 5 mg/kg daily, 14 days | – | blood chemistry level | 15.2 mg/dL
[O-][S+]1CCc2nc(N3CCC(c4ncc(Cl)cn4)CC3)nc(NC3(CO)CCC3)c21 (centres unmarked) | refers to: nervous system disorders | healthy male humans | 36 mg single dose | – | adverse event incidence | 33.3%
Cc1cccc(Cn2nc(C3CC3)c3c(NC(=O)c4cnc5cc(OCCN6CCN(C)CC6)ccn45)cccc32)n1 | CTCAE v4.03, refers to: blood alkaline phosphatase increased | pancreatic ductal adenocarcinoma patients | oral, dose not given, with: pembrolizumab IV every 3 weeks | – | all-cause adverse events | 14.8%
CO[C@H]1C[C@@H]2CC[C@@H](C)[C@@](O)(O2)C(=O)C(=O)N2CCCC[C@H]2C(=O)O[C@H]([C@H](C)C[C@@H]2CC[C@@H](OC(=O)NCCOCCOCCOCCOCCOCCOCCOCCOCCC(=O)N3CCc4cc(Cn5nc(-c6ccc7oc(N)nc7c6)c6c(N)ncnc65)ccc4C3)[C@H](OC)C2)C[C@@H](O)[C@H](C)/C=C(\C)[C@@H](O)[C@@H](OC)C(=O)[C@H](C)C[C@H](C)/C=C/C=C/C=C/1C | – | patients with advanced solid tumours | intravenous, 6 mg weekly, any grade | – | dysgeusia incidence | 8.3%
CC(C)[C@@H]1NC(=O)CNC(=O)[C@H](CC(N)=O)NC(=O)[C@H](CCCNC(=N)N)NC(=O)[C@H](Cc2ccc(O)cc2)NC(=O)[C@H](C(C)C)NC(=O)[C@@H](NC(=O)[C@@H](NC(=O)[C@H](CC(N)=O)NC(=O)[C@H](Cc2c[nH]c3ccccc23)NC(=O)[C@H](C)NC(=O)[C@H](Cc2ccccc2)NC(=O)CN)C(C)C)CSSC[C@@H](C(=O)N[C@@H](Cc2cnc[nH]2)C(=O)N[C@@H](CCCNC(=N)N)C(=O)N[C@@H](CCCNC(=N)N)C(=O)N[C@@H](C)C(=O)N[C@@H](CC(N)=O)C(N)=O)NC(=O)[C@H](C(C)C)NC(=O)[C@H](CCCNC(=N)N)NC1=O | – | ICR mouse | ip, 5 mg/kg | direction not given | lachrymation score | 0
CC[C@H](C)[C@H](NC(=O)[C@H](Cc1ccccc1)NC(=O)[C@H](CCC(=O)O)NC(=O)[C@H](CCCNC(=N)N)NC(=O)[C@H](C)NC(=O)[C@H](C)NC(=O)[C@H](CCC(N)=O)NC(=O)[C@H](CCC(=O)O)NC(=O)[C@H](CCC(=O)O)NC(=O)[C@H](CC(C)C)NC(=O)[C@H](Cc1ccc(O)cc1)NC(=O)[C@H](CO)NC(=O)[C@H](CO)NC(=O)[C@@H](NC(=O)[C@H](CC(=O)O)NC(=O)[C@H](CO)NC(=O)[C@@H](NC(=O)[C@H](Cc1ccccc1)NC(=O)[C@@H](NC(=O)CNC(=O)[C@H](CCC(=O)O)NC(=O)[C@H](C)NC(=O)CCc1cnc[nH]1)[C@@H](C)O)[C@@H](C)O)C(C)C)C(=O)N[C@@H](C)C(=O)N[C@@H](Cc1c[nH]c2ccccc12)C(=O)N[C@@H](CC(C)C)C(=O)N[C@H](C(=O)N[C@@H](CCCNC(=N)N)C(=O)NCC(=O)N[C@@H](CCCNC(=N)N)C(=O)N[C@@H](CCCCNC(=O)COCCOCCNC(=O)COCCOCCNC(=O)CC[C@H](NC(=O)CCCCCCCCCCCCCCCCC(=O)O)C(=O)O)C(=O)NCC(=O)NCC(=O)N[C@@H](CO)C(=O)N[C@@H](CCCCNC(=O)[C@H](CCCCNc1c(NCCCCCN(O)C(=O)CCC(=O)NCCCCCN(O)C(=O)CCC(=O)NCCCCCN(O)C(C)=O)c(=O)c1=O)Nc1c(NCCCCCN(O)C(=O)CCC(=O)NCCCCCN(O)C(=O)CCC(=O)NCCCCCN(O)C(C)=O)c(=O)c1=O)C(=O)O)C(C)C [zirconium-89 labelled] | ex vivo gamma counting | male Sprague-Dawley rats, colon | intravenous, 1 nmol, 24 h | – | tissue uptake | 0.25 %ID/g
CC(C)Nc1ccnc(Nc2cccc(-c3cccnc3)c2)n1 | refers to: Phosphorus | mouse, blood | intraperitoneal, 5 mg/kg | – | blood chemistry | 12 mg/dL
COc1ncccc1-c1cnn2ccc(N3CCN(C(=O)OC(C)C)CC3)nc12 | – | mouse, open field test, brain | oral, 30 mg/kg, 60 min | – | drug concentration | 48 µM
CCN(CC)CCCC[C@H](NC(=O)[C@H](CC(C)C)NC(=O)[C@H](C)NC(=O)[C@H](Cc1ccccc1)NC(=O)c1ccc(C(C)(C)C)cc1)C(=O)N[C@@H](CO)C(=O)OC | – | male Swiss Albino mice, plasma | intraperitoneal, 10 mg/kg, 1 h | – | plasma concentration | 559 ng/mL
CCN1[C@@H](C(=O)NC23CCC(C(=O)O)(CC2)CC3)[C@H](c2cccc(Cl)c2F)[C@]2(C(=O)Nc3cc(Cl)ccc32)C12CCCCC2 | – | patients with advanced solid tumours | oral, 100 mg | – | Leukopenia incidence | 45.5%
O=C1Nc2cc3[nH]nc(-c4ccncc4)c3cc2CN1Cc1ccccc1 | CTCAE v4.03 | advanced solid tumour patients | intravenous, 3.6 mg/kg | – | patients with infusion reaction | 0%
NCCCC[C@@H]1NC(=O)[C@@H](Cc2c[nH]c3ccccc23)NC(=O)[C@H](c2ccccc2)NC(=O)[C@@H]2C[C@@H](OC(=O)NCCN)CN2C(=O)[C@H](Cc2ccccc2)NC(=O)[C@H](Cc2ccc(OCc3ccccc3)cc2)NC1=O | – | healthy human volunteers | 600 µg twice daily | – | subjects with injection-site erythema | 73%

Excerpt of the above:
Structure (SMILES) | assay | system | conditions | scale | endpoint | result
N.N.[Cl][Pt][Cl] | – | mice, serum | dose not given | – | AST | 132 IU/L
